Values quoted from earlier work as cited in several papers.
Lines come from different studies, so protocols differ. ± marks the error that the study gave.
Sequence of UniProt O75747 (whole entry, looked up): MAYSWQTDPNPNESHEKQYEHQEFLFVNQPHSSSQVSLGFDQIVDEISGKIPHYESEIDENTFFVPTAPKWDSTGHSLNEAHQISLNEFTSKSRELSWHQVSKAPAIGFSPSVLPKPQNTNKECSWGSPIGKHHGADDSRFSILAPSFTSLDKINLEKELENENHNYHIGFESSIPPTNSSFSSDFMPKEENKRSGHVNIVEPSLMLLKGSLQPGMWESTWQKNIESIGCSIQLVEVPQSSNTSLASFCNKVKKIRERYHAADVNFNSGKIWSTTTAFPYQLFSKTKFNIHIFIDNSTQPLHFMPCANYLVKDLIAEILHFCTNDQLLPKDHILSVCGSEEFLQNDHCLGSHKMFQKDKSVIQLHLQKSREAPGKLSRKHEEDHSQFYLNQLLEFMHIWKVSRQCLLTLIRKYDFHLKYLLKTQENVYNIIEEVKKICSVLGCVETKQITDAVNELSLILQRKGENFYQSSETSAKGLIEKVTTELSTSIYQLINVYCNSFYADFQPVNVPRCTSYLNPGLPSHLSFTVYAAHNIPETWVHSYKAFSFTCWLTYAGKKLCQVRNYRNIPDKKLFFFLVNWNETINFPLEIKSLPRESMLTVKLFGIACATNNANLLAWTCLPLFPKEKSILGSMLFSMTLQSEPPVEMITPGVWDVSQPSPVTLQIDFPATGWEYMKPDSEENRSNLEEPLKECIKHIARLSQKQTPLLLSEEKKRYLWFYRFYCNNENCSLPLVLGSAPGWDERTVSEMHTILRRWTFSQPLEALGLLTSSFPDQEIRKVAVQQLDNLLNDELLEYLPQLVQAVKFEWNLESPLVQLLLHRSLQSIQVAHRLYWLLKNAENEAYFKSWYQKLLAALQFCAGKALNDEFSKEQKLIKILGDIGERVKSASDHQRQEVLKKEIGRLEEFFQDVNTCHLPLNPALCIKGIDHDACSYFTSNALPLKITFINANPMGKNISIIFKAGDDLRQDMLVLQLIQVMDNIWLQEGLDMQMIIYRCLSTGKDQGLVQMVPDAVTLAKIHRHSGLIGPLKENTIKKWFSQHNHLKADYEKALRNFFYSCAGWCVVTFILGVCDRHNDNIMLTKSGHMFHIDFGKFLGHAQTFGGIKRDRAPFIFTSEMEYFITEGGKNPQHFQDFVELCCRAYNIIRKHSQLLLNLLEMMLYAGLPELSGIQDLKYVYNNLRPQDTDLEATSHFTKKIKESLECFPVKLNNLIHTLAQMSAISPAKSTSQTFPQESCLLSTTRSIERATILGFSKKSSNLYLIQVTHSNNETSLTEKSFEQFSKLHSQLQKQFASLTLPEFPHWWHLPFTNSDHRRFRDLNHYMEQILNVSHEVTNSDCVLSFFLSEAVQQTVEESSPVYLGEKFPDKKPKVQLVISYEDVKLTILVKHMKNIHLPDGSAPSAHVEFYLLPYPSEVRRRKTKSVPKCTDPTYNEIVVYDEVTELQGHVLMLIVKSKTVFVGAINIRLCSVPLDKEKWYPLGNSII
Sequence of UniProt Q9UK32 (whole entry, looked up): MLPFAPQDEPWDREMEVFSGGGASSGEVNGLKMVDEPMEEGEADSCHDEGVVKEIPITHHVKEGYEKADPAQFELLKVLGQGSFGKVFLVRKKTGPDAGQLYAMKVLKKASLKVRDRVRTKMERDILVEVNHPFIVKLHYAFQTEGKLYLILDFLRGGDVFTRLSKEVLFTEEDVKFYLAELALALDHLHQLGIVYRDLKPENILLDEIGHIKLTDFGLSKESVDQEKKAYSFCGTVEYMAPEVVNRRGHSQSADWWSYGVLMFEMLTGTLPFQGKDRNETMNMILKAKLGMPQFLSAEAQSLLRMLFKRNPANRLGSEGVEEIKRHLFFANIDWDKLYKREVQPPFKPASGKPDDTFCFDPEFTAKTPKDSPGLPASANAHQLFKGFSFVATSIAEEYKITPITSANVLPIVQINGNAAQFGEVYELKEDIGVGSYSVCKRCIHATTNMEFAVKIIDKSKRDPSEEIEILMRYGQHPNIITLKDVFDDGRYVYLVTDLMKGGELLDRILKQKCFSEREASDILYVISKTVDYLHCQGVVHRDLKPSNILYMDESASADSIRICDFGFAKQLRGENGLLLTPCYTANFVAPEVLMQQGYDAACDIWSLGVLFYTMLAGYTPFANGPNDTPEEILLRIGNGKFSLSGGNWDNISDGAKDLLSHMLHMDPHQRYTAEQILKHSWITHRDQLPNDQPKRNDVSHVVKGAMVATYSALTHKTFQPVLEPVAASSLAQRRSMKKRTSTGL

SMILES | tested on | assay | test system | setting | scale | measurement | result
C#Cc1cccc(Nc2ncnc3cc(OCCOC)c(OCCOC)cc23)c1 | ABCB1 | – | KB-C2 | – | – | IC50 | 10000 nM
Cc1ccc(C)c(OCCCC(C)(C)C(=O)O)c1 | OATP1B1 | – | – | – | literature maximum | IC50 | 381000 nM
C[C@H]1COCCN1c1nc(-c2cnc(N)cc2C(F)F)nc(N2CCOCC2)n1 | RKO | – | – | – | – | GI50 | 477 nM
CC1(C)S[C@@H]2[C@H](NC(=O)[C@H](N)c3ccccc3)C(=O)N2[C@H]1C(=O)O | Klebsiella pneumoniae | – | clinical isolate RKI-No_503/15 | – | – | MIC | > 16 µg/mL
COC[C@H]1C[C@@H](c2ncc(-c3ccc4c(c3)COc3cc5c(ccc6nc([C@@H]7CC[C@H](C)N7C(=O)[C@@H](NC(=O)OC)C(C)C)[nH]c65)cc3-4)[nH]2)N(C(=O)[C@H](NC(=O)OC)c2ccccc2)C1 | OATP1B1 | – | – | – | literature maximum | IC50 | 1800 nM
C=CC(=O)N1CCC(C(=O)NCC(=O)N2CCN(c3nc(-c4cnc(N)nc4C(F)F)nc(N4CCOCC4)n3)CC2)CC1 | PIK3C2G (Homo sapiens, UniProt O75747) | kinase activity | – | 1 µM | – | remaining activity | 16%
COc1c(N2C[C@@H]3CCCN[C@@H]3C2)c(F)cc2c(=O)c(C(=O)O)cn(C3CC3)c12 | MATE1 | inhibitor | – | – | – | IC50 | 5000 to 12000 nM
CNC(C)C1CCC(N)C(OC2C(N)CC(N)C(OC3OCC(C)(O)C(NC)C3O)C2O)O1 (centres unmarked) | Klebsiella pneumoniae | – | clinical isolate RKI-No_503/15 | – | – | MIC | > 8 µg/mL
COc1cc([C@H]2Oc3cc([C@H]4Oc5cc(O)cc(O)c5C(=O)[C@@H]4O)ccc3O[C@@H]2CO)ccc1O | human OATP1B1 and OATP1B3 | inhibitor | – | – | – | IC50 | 2200 to 9700 nM
COC(=O)N[C@H](C(=O)N1CCC[C@H]1c1nc(-c2ccc3c(c2)O[C@@H](c2ccccc2)n2c-3cc3cc(-c4c[nH]c([C@@H]5CCCN5C(=O)[C@@H](NC(=O)OC)C(C)C)n4)ccc32)c[nH]1)C(C)C | human CYP3A4 | inhibitor | human liver microsomes | – | – | IC50 | > 100000 nM
CC(C)=CCc1cc2c(cc1O)O[C@H](c1ccc(O)cc1)CC2=O | UGT1A1 | inhibitor | – | – | – | IC50 | 750 nM
CC(=O)N1CCN(c2ccc(OCC3COC(Cn4ccnc4)(c4ccc(Cl)cc4Cl)O3)cc2)CC1 (centres unmarked) | PXR | binding | – | – | – | IC50 | 74400 nM
C=C(C)[C@@H]1CC[C@]2(C)CC[C@]3(C)[C@H](CC[C@@H]4[C@@]5(C)CC[C@H](O)C(C)(C)[C@@H]5CC[C@]43C)[C@@H]12 | rat CYP2D6 | inhibitor | rat liver microsomes | – | – | IC50 | > 100000 nM
C=C[C@@H]1C[C@]1(NC(=O)[C@@H]1C[C@@H]2CN1C(=O)[C@H](C(C)(C)C)NC(=O)O[C@@H]1C[C@H]1CCCCCc1nc3ccc(OC)cc3nc1O2)C(=O)NS(=O)(=O)C1CC1 | human OATP1B1 | uptake, inhibitor | MDCKII-OATP1B1 cells | added: pitavastatin | – | IC50 | 700 nM
CNCc1cn(S(=O)(=O)c2cccc(F)c2)c(-c2ccc(F)cc2F)c1OC | OAT1 | transporter uptake, inhibitor | – | – | – | IC50 | 1360 nM
OC(Cn1cncn1)(Cn1cncn1)c1ccc(F)cc1F | CYP2B6 | enzyme activity, inhibitor | – | – | – | IC50 | 313000 to 361000 nM
Cc1c(C#N)cccc1[C@@H](C)Nc1nnc(C)c2cnc(N3CCOCC3)cc12 | NCI-H1666 | 3D cell viability | – | 14 d | – | IC50 | 152 ± 95.4 nM
Nc1cc(C(F)(F)F)c(-c2nc(N3CCOCC3)nc(N3CCOCC3)n2)cn1 | Ribosomal protein S6 kinase alpha-6, C-terminal kinase domain (RPS6KA6, Homo sapiens, UniProt Q9UK32) | enzyme activity | – | 10 µM | reference: untreated | remaining activity | 100%
N[C@@H]1c2cccnc2[C@H](OC(=O)N2CCC(n3c(=O)[nH]c4ncccc43)CC2)CC[C@H]1c1cccc(F)c1F | CYP2D6 (human) | – | human liver microsomes | – | – | IC50 | > 40000 nM
CCC(C)n1ncn(-c2ccc(N3CCN(c4ccc(OCC5COC(Cn6cncn6)(c6ccc(Cl)cc6Cl)O5)cc4)CC3)cc2)c1=O (centres unmarked) | OATP1B3 (SLCO1B3) OATP1B3 | – | – | literature geometric mean | – | IC50 | 1690 nM
C=CC(=O)N1CCC[C@@H](n2nc(-c3ccc(Oc4ccccc4)cc3)c3c(N)ncnc32)C1 | ABCB1 (human) | – | HEK293/ABCB1 | – | – | IC50 | > 2500 nM
CO/N=C(\C(=O)N[C@@H]1C(=O)N2C(C(=O)O)=C(CSc3nc(=O)c(=O)[nH]n3C)CS[C@H]12)c1csc(N)n1 | MRP3 | transport activity, inhibitor | – | – | – | IC50 | 630000 nM
CO[C@H]1/C=C/O[C@@]2(C)Oc3c(C)c(O)c4c(O)c(c(/C=N/N5CCN(C)CC5)c(O)c4c3C2=O)NC(=O)/C(C)=C\C=C\[C@H](C)[C@H](O)[C@@H](C)[C@@H](O)[C@@H](C)[C@H](OC(C)=O)[C@@H]1C | OATP1B3 | – | – | – | literature minimum | IC50 | 110 nM
CC(=O)c1c(C)c2cnc(Nc3ccc(N4CCNCC4)cn3)nc2n(C2CCCC2)c1=O | ABCB1 | – | KB-C2 | – | – | IC50 | 3000 nM
Cc1nc2ccc(F)cc2n1-c1nc(N)c(F)c(Nc2ccc(C(F)(F)F)cc2)n1 | BCRP (human) | BCRP transport, inhibitor | in vitro | – | – | IC50 | 13 nM
C=C[C@@H]1C[C@]1(NC(=O)[C@@H]1C[C@@H]2CN1C(=O)[C@H](C(C)(C)C)NC(=O)O[C@@H]1C[C@H]1CCCCCc1nc3ccc(OC)cc3nc1O2)C(=O)NS(=O)(=O)C1CC1 | OATP1B1 | – | – | – | literature maximum | IC50 | 1670 nM
